Results pooled from the literature.
Compare with care: the assays were run in different laboratories. Numbers after ± are the reported error.

Under “change, beta power, EEG O1-Pz”, OC(CCN1CCCCC1)(c1ccccc1)C1CC2C=CC1C2 (stereo not drawn) is recorded as 7.4% (resting-state EEG; healthy elderly humans; oral, 2 mg, eyes open, LS mean; relative to: baseline).
The serum immunoglobulin of CC#CC(=O)N[C@H]1CCCN(c2c(F)cc(C(N)=O)c3[nH]c(C)c(C)c23)C1 is reported as -1.3 % change (refers to: IgA; human; 0.3 mg once daily, day 21; relative to: baseline).
With C[C@@H](NC(=O)N1C(=O)[C@H](Cc2ccnc(N)c2)[C@H]1C(=O)O)C1CCCCC1 the ACT AUEC was 17300 h·s (human; iv infusion, 1.0 mg/kg/h, 24 h).
COc1ccccc1[C@H](Cn1c(=O)n(C(C)(C)C(=O)O)c(=O)c2c(C)c(-c3ncco3)sc21)OC1CCOCC1 — result for “serum total cholesterol”: 179 ± 31.7 mg/dL (human; 200 mg, post-treatment).
CCCNc1nc(Nc2ccc(C#N)cc2)ncc1C#CCCCNC(=O)[C@H](C)N(C)C(=O)/C=C/CN(C)C has a marrow blasts of 1% (human; 75 mg twice daily, cycle 28 day 1).
For Cc1cc(F)cc2c(CCC(=O)N[C@@H]3C(=O)NC[C@H]3O)c(-c3ccc(F)cc3)[nH]c12, the UACR was 5690 µg/mg (proteinuria, refers to: urine albumin/creatinine; APOL1 G2 mice; 30 mg/kg twice daily, day 6, added: IFNγ).
For O=C(COc1ccc(Cl)cc1)NC12CC(c3nnc([C@H]4C[C@@H](OC(F)(F)F)C4)o3)(C1)C2, “ATF4 protein change” read -45.8% (healthy human, PBMC; oral, 200 mg single dose, day 2, 24 h post-dose, median, added: sodium arsenite ex vivo; relative to: baseline).
For NC(=O)c1cnc2[nH]ccc2c1N[C@@H]1[C@@H]2CC3C[C@H]1C[C@@](O)(C3)C2, “CD8+ naive T-cell change” read -1.45% (flow cytometry; Japanese healthy men, blood; oral, 10 mg twice daily, 72 h after day 7 dose; relative to: baseline).
C[C@H]1C[C@H]2CSC(N)=N[C@@]2(c2nc(NC(=O)c3ccc(OC(F)F)cn3)cs2)CO1 — result for “percent change from baseline”: -58.7% (refers to: Aβ1-40; healthy adults, plasma; 5 mg once daily, day 14; relative to: placebo).
Under “stable disease as best response”, COc1cc2cc(-c3ccc(CC(=O)Nc4cc(C(C)(C)C(F)(F)F)no4)cn3)cnc2cc1OC is recorded as 33% (RECIST v1.1; RET-altered advanced solid tumour patients; oral, 100 mg once daily, phase I).
Cc1ccc(N(O)N=Nc2ccc(S(=O)(=O)Nc3cc(C)on3)cc2)cc1: “paw edema volume” 3.71 ± 0.12 a.u. (carrageenan-induced paw edema; Wistar rat; oral, 100 mg/kg, 0 h (baseline), added: carrageenan 1% subplantar; higher = more edema).
CC1(C)CCC(c2ccc(Cl)cc2)=C(CN2CCN(c3ccc(C(=O)NS(=O)(=O)c4ccc(N[C@H](CCN5CCOCC5)CSc5ccccc5)c(S(=O)(=O)C(F)(F)F)c4)cc3)CC2)C1 has an EC50 of 18.8 nM (cell kill, PI exclusion flow cytometry; circulating neoplastic cells, human, peripheral blood; 24 h).
The sarcomere length of O=C(O)CNC(=O)Cc1ccccc1 is reported as 1.72 µm (ventricular cardiomyocytes, C57BL/6 mouse; dose not given, 0.02 s).
With CCCCC1(CCCC)CN(c2ccccc2)c2cc(SC)c(OCC(=O)N[C@@H](C(=O)NCC(=O)O)c3ccccc3)cc2S(=O)(=O)C1 the plasma C4 was 61.6 ng/mL (refers to: 7α-hydroxy-4-cholesten-3-one; human, plasma; 10 mg once daily, day 9).
O=C(OC(C(F)(F)F)C(F)(F)F)N1CCN(Cc2cccc(Oc3ccccc3)c2)CC1 gave a k4 of 0.143 min⁻¹ (PET blocking study; rhesus monkey, brain Pons; 0.1 mg/kg, compound pretreatment, added: [18F]T-401 tracer).
Under “paw edema volume”, Cc1cc(NS(=O)(=O)c2ccc(N=NN(O)c3ccccc3)cc2)no1 is recorded as 5.1 ± 0.42 a.u. (carrageenan-induced paw edema; Wistar rat; oral, 100 mg/kg, 2 h after carrageenan, added: carrageenan 1% subplantar; higher = more edema).
COc1nc(NCc2cn(-c3ccc(NC(=O)c4ccc(C(F)(F)F)cc4)cc3)nn2)nc(OC)n1 has an IC50 of 72.5 ± 4.54 nM (cell viability, MTT; normal colonocytes, rat; 72 h).
With COc1cc(/C=C/C(=O)N2CCC=CC2=O)cc(OC)c1OC the mRNA level was 0.552 (qRT-PCR, refers to: Survivin; nude mouse, 468 xenograft, tumour; 15 mg/kg, 21 days, unit not given; relative to: β-actin, vehicle).
O=S(=O)(Nc1nccs1)c1ccc(N=NN(O)c2ccccc2)cc1: “paw edema volume” 6.52 ± 1.72 a.u. (carrageenan-induced paw edema; Wistar rat; oral, 100 mg/kg, 1 h after carrageenan, added: carrageenan 1% subplantar; higher = more edema).
Cc1n[nH]c2ccc(-c3cc(OC[C@@H](N)Cc4ccccc4)cnc3-c3ccoc3)cc12 — result for “log2 fold change”: 0.026 (kinase binding, competitor, MIB/MS competition, refers to: CKA2; Candida albicans cell lysate; 1 µM; relative to: DMSO).
For N#Cc1ccc2c(c1)[C@H]1CCCN(C(=O)c3ccc4[nH]cnc4c3)[C@H]1C2, “change from baseline” read -16 ± 5.6 mg/dL (refers to: LDL; human; 80 mg once daily, day 28, adjusted mean; relative to: placebo).
CC(C)NCC(O)c1ccc(O)c(O)c1 (stereo not drawn) has a sarcomere length of 1.7 µm (ventricular cardiomyocytes, C57BL/6 mouse; dose not given, 0.116 s).
For COc1ncnn2ccc(-c3cnc4nc(C)n(Cc5nnc([C@@H](C)F)o5)c4c3)c12, “complete response rate” read 50% (Homo sapiens, relapsed or refractory AML or MDS; dose not given, MDS patients).
Under “paw edema volume”, CCN(O)N=Nc1ccc(S(=O)(=O)Nc2cc(C)on2)cc1 is recorded as 4.57 ± 0.52 a.u. (carrageenan-induced paw edema; Wistar rat; oral, 100 mg/kg, 3 h after carrageenan, added: carrageenan 1% subplantar; higher = more edema).
CNCc1cc(-c2ccccc2F)n(S(=O)(=O)c2cccnc2)c1: “gastric lesion area” 21.5 ± 5.9 mm² (rat, indomethacin-induced ulcer; oral, 2 mg/kg, 6 h, added: indomethacin 40 mg/kg).
Under “paw edema volume”, Cc1cccc(N(O)N=Nc2ccc(S(=O)(=O)Nc3nccs3)cc2)c1 is recorded as 5.41 ± 0.73 a.u. (carrageenan-induced paw edema; Wistar rat; oral, 100 mg/kg, 1 h after carrageenan, added: carrageenan 1% subplantar; higher = more edema).
For NCC(=O)Nc1cncc(-c2nn3c(=O)cc(N4CCNCC4)nc3s2)c1, “inhibition of platelet aggregation” read 69.2% (ADP-induced platelet aggregation, light transmission aggregometry; stable CAD patients on aspirin; subcutaneous, 0.05 mg/kg, 30 min post-dose, added: ADP 20 µM; relative to: placebo).
Under “duration of hypersensitivity reversal”, OCCCN1CC[C@@H]2C[C@H]1c1cc(-c3ccc(C(F)(F)F)cc3)ccc12 is recorded as about 4 days (mechanical hypersensitivity, von Frey test; wild-type mice, spared nerve injury; intravenous, 20 mg/kg).
C[C@@H]1CCC[C@H](n2cnc(-c3cc(Cl)ccc3-n3cc(Cl)nn3)cc2=O)c2cc(ccn2)-c2c(cnn2C(F)F)NC1=O — result for “concentration for aPTT prolongation”: 2400 nM (dog plasma; IC2× aPTT, STA-PTT reagent).
For CN(C(=O)n1cnc(-c2ccc[n+]([O-])c2)c1)C1CCCCC1, the AUC(0-t) was 355 ng·h/mL (refers to: PEA; human, plasma; 5 mg single dose).
Under “GSEA enrichment score”, CN(C)C(=O)c1cc2cnc(Nc3ccc(N4CCNCC4)cn3)nc2n1C1CCCC1 is recorded as -0.491 (RNA-seq GSEA, refers to: HALLMARK_MYOGENESIS; MB002 tumour; concentration not given, in vivo; relative to: vehicle, direction not given).
Under “pathway activation z-score”, Cn1cc(Nc2nccc(-c3ccc4c(c3)CN(C3COC3)CC[C@H]4NC(=O)c3cn(C(C)(C)C)nn3)n2)cn1 is recorded as 3.41 (refers to: xenobiotic metabolism signaling; splenic B cells, mice; 30 mg/kg, IgD-activated in vivo; relative to: vehicle, direction not given).
For C=CCn1c(=O)c2cnc(Nc3ccc(N4CCN(C)CC4)cc3)nc2n1-c1ccc2c(n1)[C@@](O)(CC)CC2, “time to γH2AX decrease” read at most 24 h (immunohistochemistry; mouse, OVCAR-3 xenograft, tumour; 100 mg/kg, dosed 3 days).
Under “left ventricular end-diastolic volume”, COc1cc(F)c([C@@H]2CNC(=O)[C@H]2NC(=O)Nc2ccccc2)c(F)c1 is recorded as 300 ± 82 µL (terminal haemodynamics; rat, permanent coronary occlusion MI; 1 mg/kg, 1008 h, 6 weeks post-MI).
CSCCNc1nc(SCCC(F)(F)F)nc2c1ncn2[C@@H]1O[C@H](COP(=O)(O)OP(=O)(O)C(Cl)(Cl)P(=O)(O)O)[C@@H](O)[C@H]1O has an inhibition of 25.3 ± 25.3% (ADP-induced platelet aggregation, LTA; human patients, platelet-rich plasma; dose not given, 4 to 6 h, added: ADP 20 µM).
Cc1ccc(C(=O)OCc2ccc([C@@H](CN)C(=O)Nc3ccc4cnccc4c3)cc2)c(C)c1 has an IOP of 37.3 mmHg (tonometry; NZW rabbit, magnetic bead-induced ocular hypertension; ocular, 0.02%, 0 h).
CCO[C@H]1CCN(Cc2c(OC)cc(C)c3[nH]ccc23)[C@H](c2ccc(C(=O)O)cc2)C1: “PNH RBC clone size” 168% (PNH patients, blood; oral, 25 mg then 100 mg, week 12, mean percent change; relative to: baseline).
For CN(O)N=Nc1ccc(S(=O)(=O)Nc2nccs2)cc1, “paw edema volume” read 5.41 ± 0.91 a.u. (carrageenan-induced paw edema; Wistar rat; oral, 100 mg/kg, 2 h after carrageenan, added: carrageenan 1% subplantar; higher = more edema).
Under “log2 fold change”, N#Cc1ccn2c(-c3ccncc3)c(-c3ccc(F)cc3)nc2c1 is recorded as 0.165 (kinase binding, competitor, MIB/MS competition, refers to: MCK1; Candida albicans cell lysate; 1 µM; relative to: DMSO).

Excerpt of the above:
The sarcomere length of O=C(O)CNC(=O)Cc1ccccc1 is reported as 1.72 µm (ventricular cardiomyocytes, C57BL/6 mouse; dose not given, 0.02 s).
Under “duration of hypersensitivity reversal”, OCCCN1CC[C@@H]2C[C@H]1c1cc(-c3ccc(C(F)(F)F)cc3)ccc12 is recorded as about 4 days (mechanical hypersensitivity, von Frey test; wild-type mice, spared nerve injury; intravenous, 20 mg/kg).
For NCC(=O)Nc1cncc(-c2nn3c(=O)cc(N4CCNCC4)nc3s2)c1, “inhibition of platelet aggregation” read 69.2% (ADP-induced platelet aggregation, light transmission aggregometry; stable CAD patients on aspirin; subcutaneous, 0.05 mg/kg, 30 min post-dose, added: ADP 20 µM; relative to: placebo).
With COc1cc(/C=C/C(=O)N2CCC=CC2=O)cc(OC)c1OC the mRNA level was 0.552 (qRT-PCR, refers to: Survivin; nude mouse, 468 xenograft, tumour; 15 mg/kg, 21 days, unit not given; relative to: β-actin, vehicle).
Under “GSEA enrichment score”, CN(C)C(=O)c1cc2cnc(Nc3ccc(N4CCNCC4)cn3)nc2n1C1CCCC1 is recorded as -0.491 (RNA-seq GSEA, refers to: HALLMARK_MYOGENESIS; MB002 tumour; concentration not given, in vivo; relative to: vehicle, direction not given).
O=S(=O)(Nc1nccs1)c1ccc(N=NN(O)c2ccccc2)cc1: “paw edema volume” 6.52 ± 1.72 a.u. (carrageenan-induced paw edema; Wistar rat; oral, 100 mg/kg, 1 h after carrageenan, added: carrageenan 1% subplantar; higher = more edema).
